Results pooled from the literature.
Numbered parts are unrelated; each lists some results of a single study.

Block 1
Target: TAR DNA-binding protein 43, full length, His tag (TARDBP, Homo sapiens, UniProt Q13148, residues 1-414)
Method: RNA Bind-n-Seq
Molecule type: RNA
Matrix: in vitro
Tested at: 20 nM
Notes: 6-mer, flanks averaged, single round
With: 150 mM LiCl
Reference: input library
Reading: higher = stronger binding
Under “6-mer enrichment (R)”, `AGAUAG` is recorded as 0.92.
`UUGUUG` — result for “6-mer enrichment (R)”: 1.36.
Under “6-mer enrichment (R)”, `CAGGGC` is recorded as 0.973.
Under “6-mer enrichment (R)”, `CUUCCC` is recorded as 1.02.
`AGGGCU` — result for “6-mer enrichment (R)”: 0.963.
`GCUUCG`: “6-mer enrichment (R)” 0.861.
`GUUCAG` — result for “6-mer enrichment (R)”: 0.946.
For `GCGCGU`, “6-mer enrichment (R)” read 1.13.
Under “6-mer enrichment (R)”, `GCACCC` is recorded as 1.1.
For `CAAGCA`, “6-mer enrichment (R)” read 0.831.

Block 2
Target: RING finger protein unkempt homolog, zinc fingers 1-6, GST-SBP tag (UNK, Homo sapiens, UniProt Q9C0B0, residues 30-357)
UniProt Q9C0B0, sequence (30-357, looked up): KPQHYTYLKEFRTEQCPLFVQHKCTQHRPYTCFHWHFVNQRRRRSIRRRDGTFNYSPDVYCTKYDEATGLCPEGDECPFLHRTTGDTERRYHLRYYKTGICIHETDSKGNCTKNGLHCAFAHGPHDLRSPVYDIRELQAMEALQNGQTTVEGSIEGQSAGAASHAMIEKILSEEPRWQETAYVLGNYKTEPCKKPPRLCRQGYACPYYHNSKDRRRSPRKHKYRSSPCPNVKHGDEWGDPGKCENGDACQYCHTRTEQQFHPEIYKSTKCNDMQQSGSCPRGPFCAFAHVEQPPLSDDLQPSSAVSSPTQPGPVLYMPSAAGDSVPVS
Method: RNA Bind-n-Seq
Molecule type: RNA
Matrix: in vitro
Tested at: not given
Notes: RNA with constant flanks, human and mouse sites, ends assumed
Reference: input RNA pool
Reading: higher = stronger binding
For `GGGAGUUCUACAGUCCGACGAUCAACUUUAGGUGCACGAGGGGCACUUAUUGUUUUUGCUUUUCGUCCCCUCCCCCUGCUCUCCUAGGCCUGUAAUUCUCUUAAGGUCUACUGGAUCAUUCCUUGUACCCUGCAAAAUUCACUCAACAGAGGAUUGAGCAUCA`, the bound/input enrichment was 0.197 ratio.
With `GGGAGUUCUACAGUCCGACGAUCCCAGGACACUGCCUUAUGUUUGAUCAUCGGCCAAGGUCCUGGCGAGAACUGCCUCUGCGGCUAGCUGAUUUUGGGGUACUUCAUAGGAACGAGCUGUCUGGAGCACUCACAGGACUCACCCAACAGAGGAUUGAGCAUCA` the bound/input enrichment was 0.147 ratio.
`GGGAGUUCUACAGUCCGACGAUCCUUUGAAAGAUGAACAGUGUAGCCUGUCUGAAACUGUAGAGCCUUCAGGUGUCUUUAUUUAAUAGGUUGGGAGUGUGCAAGGGCUUCCUUAGCAGGGACAGAAGGCAAUCCUUUCAUGGUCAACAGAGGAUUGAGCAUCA` has a bound/input enrichment of 0.887 ratio.
With `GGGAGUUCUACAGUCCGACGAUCUUAACUCCUUUACACCAUUAGUUAUCUGUGAGACCAUCUAUUCCACACUCUUCAUUUUUUAAAAAGAGACAAUAAUUAUUUUUAACUCACUGAAGUUUAAAACUACCUAGCAUUUCUGAUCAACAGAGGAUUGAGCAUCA` the bound/input enrichment was 47.5 ratio.
`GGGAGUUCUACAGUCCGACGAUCUGUCCACAAGUGGCCGACAUGGAACAUGCUGAGCAGUGGCUCCUCUGAAUGUUCACUUUAUUAGUCAUGUAUAUUUUAAAUGCUAACAUUUGAUGAAUGUAAGUUUCCACAUUGUUGCUGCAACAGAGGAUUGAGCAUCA` has a bound/input enrichment of 0.979 ratio.
With `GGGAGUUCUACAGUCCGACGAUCUGUGCCCUGAUGGCAGCUGAAGUUUGAUUCAGAUGGGCACUUUUCUUCCCCUUCCCUGCCUAGUUUCCUUUUGUUCCUUGAGUCCACGCAGAAUUCCAUUCUCUGGUCAGCAGACAGGCUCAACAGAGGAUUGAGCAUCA` the bound/input enrichment was 1.11 ratio.

Block 3
Target: Interferon regulatory factor 7, full length, phosphomimetic (IRF7, Homo sapiens, UniProt Q92985, residues 1-503, S471D/S472D/S475D/S476D/S477D/S483D/S484D/S487D)
Method: protein-binding microarray
Molecule type: double-stranded DNA, one strand shown
Matrix: in vitro
Tested at: 2200 nM top
Notes: 60-bp whole probe
With: salmon DNA 0.4 mg/ml
Reference: random background probes
Reading: higher = stronger binding
Shared flanks, not repeated: GCCTAGCAC … GTCTTGATTCGCTTGACGCTGCTG
Residues (chain): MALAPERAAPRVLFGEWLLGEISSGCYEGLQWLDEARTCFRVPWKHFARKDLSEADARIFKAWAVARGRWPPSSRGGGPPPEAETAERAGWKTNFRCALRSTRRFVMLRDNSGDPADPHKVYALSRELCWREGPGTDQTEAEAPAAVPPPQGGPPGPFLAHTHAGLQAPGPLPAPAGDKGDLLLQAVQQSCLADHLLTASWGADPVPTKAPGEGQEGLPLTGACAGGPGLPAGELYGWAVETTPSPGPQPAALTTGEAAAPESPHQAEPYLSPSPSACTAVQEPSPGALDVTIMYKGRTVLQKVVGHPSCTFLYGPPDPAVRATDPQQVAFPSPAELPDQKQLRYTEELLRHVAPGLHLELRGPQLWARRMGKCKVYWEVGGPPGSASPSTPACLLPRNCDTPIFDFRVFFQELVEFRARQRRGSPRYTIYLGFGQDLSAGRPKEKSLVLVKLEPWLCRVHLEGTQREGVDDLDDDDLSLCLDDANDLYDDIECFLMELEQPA
`GATGGACTGCTTTTCCTGACGTGCTAG`: “fitted relative affinity” 0.709 z-score.
For `TTAGGTATCCTTTTCGTTTAGTGCTAG`, “fitted relative affinity” read 3.38 z-score.
`TTAGATTTCATACTGGATTAGTGCTAG` — result for “fitted relative affinity”: 0.282 z-score.
For `TCAGCCATATTTATCTGACTGTGCTAG`, “fitted relative affinity” read 0.451 z-score.
Under “fitted relative affinity”, `TTAGATATCGGGACTCGATTAGTGCTA` is recorded as -0.207 z-score.
`GACGAACTTAGTATCGAGACGTGCTAG` — result for “fitted relative affinity”: -0.0835 z-score.
`CTTCATGTTGCTCTCCGGGGGTGCTAG`: “fitted relative affinity” 1.26 z-score.
For `TCAGAAATCACCCTTGGAACTGTGCTA`, “fitted relative affinity” read -0.436 z-score.

Further values, each from its own experiment
The fold induction of `PhoQ, residues 284 288 289 292 302 303 SSTMSV` is reported as 13.7 (PhoP, residues 12 14 15 18 19 LYFRQ (Escherichia coli, UniProt P23836); Sort-seq, item: YFP reporter; E. coli; PhoQ-PhoP variant library, with: 10 µM Mg2+; reference: high Mg2+ state, higher = stronger signaling).

Excerpt of the above (block 3):
For `TCAGCCATATTTATCTGACTGTGCTAG`, “fitted relative affinity” read 0.451 z-score.
Under “fitted relative affinity”, `TTAGATATCGGGACTCGATTAGTGCTA` is recorded as -0.207 z-score.
